Published values from different studies.
Each numbered part is a random draw from the data of one study; scales do not carry over between parts.

Block 1 — method: RNA Bind-n-Seq; form: RNA; matrix: in vitro; concentration: 365 nM; relative to: no-protein control; direction: higher = stronger binding
Target: RNA binding protein fox-1 homolog 2, RRM domain, GST-SBP tag (RBFOX2, Homo sapiens, UniProt O43251-10, residues 100-194)
Setting: natural RNA segment, single round, ends assumed
Construct (chain): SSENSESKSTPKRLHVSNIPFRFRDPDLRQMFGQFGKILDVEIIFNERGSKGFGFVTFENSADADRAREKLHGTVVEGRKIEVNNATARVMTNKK
For `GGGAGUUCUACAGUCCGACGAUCAACAUUUUAAUAUGUAUGCAUUCACCUUGCCUCUUGCACAAAUGUCAAAAUGGAAAGAUGGGAAUGUCUCAAAACAAAAUGAGCUUGGAGAUUACCAAGCAGUUUGCUGAUGGAAUUCUCGGGUGCCAA`, “RBNS enrichment (R)” read 0.293.
`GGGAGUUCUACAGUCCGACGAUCUUGUUAUAAUUCUCAACCAGAAAUUUAAUACUUUCUAAAAUAUUUUUUAAAUUUAGCUUGUGCUUUUGAAUUACAGGAGAAGGGAAUCAUAAUUUAAUAAAACGCUUACUUGGAAUUCUCGGGUGCCAA` — result for “RBNS enrichment (R)”: 0.927.
For `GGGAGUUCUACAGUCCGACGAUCCACACCUGUAAUCCCUGCACUUUGGGAGGCCAAGGUGGGAGGAUCAGUUGAGCCCCAGAGUUCAAGACCAGCCUGGGCAAUGUAGUAAGACCCCCAUCGCUACAAAAAAUUGGAAUUCUCGGGUGCCAA`, “RBNS enrichment (R)” read 1.27.
`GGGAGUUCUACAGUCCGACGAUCGCUUGAGACUGGUGUCUGUUUCAUCGUCCCAGGACACGGCAAAUGAAGUCAGAACAGAAGGAGGACGCUGGAGGGCCUUGCUGGCUACCGCUAUCUAAAGGGAACCCCCAUGGAAUUCUCGGGUGCCAA` — result for “RBNS enrichment (R)”: 0.542.
`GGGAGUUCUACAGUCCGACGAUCUAUCUGCCAUUCUAUUUAUAGCCUGAAAUGAUUCUGGCCUACCCUGUCCUGUCUGUAUGAUCUAAAAACCAGCCUUUUCCCCAGAAGGCUCUGAGCACAUCCAGAAGUGAUGGAAUUCUCGGGUGCCAA`: “RBNS enrichment (R)” 0.601.
For `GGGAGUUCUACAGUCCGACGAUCACAUACAUGGGGGCAUGUCAUGGGGAUAGAUCAAGAGGCACCAGCCAUUCUUGAGUUUGCCAGCUCCAUCCCAGGCUCCAAGUGCUGUGACUGGUGACUCUCAGGCAGGCUGGAAUUCUCGGGUGCCAA`, “RBNS enrichment (R)” read 0.789.
`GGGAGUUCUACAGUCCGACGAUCUCCCUAAAUGUGGCCACCAGAGAGUUCCAGUGGGCAGAUGUCUGUGGCUGCCCUUCUCAUUUAAGGACAUGAGUUCACUGGAGUAUUACUCAAAAAGUCUGUGGUUCAUUUGGAAUUCUCGGGUGCCAA`: “RBNS enrichment (R)” 0.308.
`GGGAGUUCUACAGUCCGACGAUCUCCAUCGCAAUGACCUGUAUUAAACACAAGCCCCCCAAGCAAAAGAAGAGGUUGAGUUUGCUGCCAGGAUUCAGAUCAGCCCUUCCCAGGGUCUGCAGGUGUCACAUGAUUGGAAUUCUCGGGUGCCAA` — result for “RBNS enrichment (R)”: 0.495.
`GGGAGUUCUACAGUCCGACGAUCUUUAUACUAAAAAUGUAGAAUAAAGACUAUUUUGAAGAUUUGAAUAAAGUGAUGAAGUUGCAUUACACCUCACUGCAAGGAUUCUUUACUUAGCUUGUUUUUAGAUUUCUUGGAAUUCUCGGGUGCCAA` — result for “RBNS enrichment (R)”: 2.22.
Under “RBNS enrichment (R)”, `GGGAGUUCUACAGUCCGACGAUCCUCAUUUUAAUGUGUGCCUUAUGCCUUGAAUGGACCAGCUGAGAUCACUAUAUUUAUUCAAGCUGUGAUUGUUUUCUUUCUCACUCAAAAAAGAAUUUUGUAUGUUGUGGUGGAAUUCUCGGGUGCCAA` is recorded as 2.16.
`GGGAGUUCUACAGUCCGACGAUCUCUCCUAUUAAAUAAAAUUAUUUUAAGUUUUAGUGUCAAAAGUGAGAUGCUGAGAGUAGGUGAUAAUGUAUAUUUUACAGAGUGGGGGUUGGCAGGAUGGUGACAUUGAAUGGAAUUCUCGGGUGCCAA` — result for “RBNS enrichment (R)”: 0.664.
`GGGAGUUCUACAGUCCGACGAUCUGUCUUCAGCCCCACGUAGAUGCUGCUUAAGAUGAGCGUUUCAAUUGCAUCAUCACUGACCUGUUAGAAUUUAACCCGGAAACAUCGCAAUAGCAUUUAGGGAUGCACGCUGGAAUUCUCGGGUGCCAA` — result for “RBNS enrichment (R)”: 1.77.

Block 2 — method: competition protein-binding microarray; form: double-stranded DNA, one strand shown; matrix: in vitro; concentration: 2 µM; with: Pho4 competitor, 0.05 µM; direction: higher = stronger binding
Target: Centromere-binding protein 1, full length, His-tagged (CBF1, Saccharomyces cerevisiae, UniProt P17106, residues 1-351)
UniProt P17106, sequence (whole entry, looked up): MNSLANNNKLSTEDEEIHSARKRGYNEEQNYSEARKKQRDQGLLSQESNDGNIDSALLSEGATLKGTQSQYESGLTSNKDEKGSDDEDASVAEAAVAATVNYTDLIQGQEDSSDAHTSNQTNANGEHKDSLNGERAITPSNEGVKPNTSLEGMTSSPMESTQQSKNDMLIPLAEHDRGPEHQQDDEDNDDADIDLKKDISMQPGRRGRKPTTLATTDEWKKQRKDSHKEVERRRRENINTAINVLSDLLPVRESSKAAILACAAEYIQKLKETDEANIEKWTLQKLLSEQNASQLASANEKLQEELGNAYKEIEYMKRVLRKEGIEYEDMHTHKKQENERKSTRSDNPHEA
Setting: whole 60-bp probe, lowest competitor level
The fluorescence intensity of `AAAGCGGTAATTTGTCACTGTACTTCACATATCTATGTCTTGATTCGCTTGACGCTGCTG` is reported as 84.2 a.u.
`CGTCCTAGCGATTGATCGGTGGGTGCCATGAGGAAGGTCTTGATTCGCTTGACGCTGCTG` gave a fluorescence intensity of 66.5 a.u.
The fluorescence intensity of `GATAGGTGATGTTGTCATGCCTGAGTATGTGTATGAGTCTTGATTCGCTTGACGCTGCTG` is reported as 91.1 a.u.
With `TATGCGCGGATGTGGCACATGCTGTTGAGATCTCAAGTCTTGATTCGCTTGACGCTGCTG` the fluorescence intensity was 138 a.u.
`AATTTAAGCCTTGGCAACGTGTTGAACCAAGTCGACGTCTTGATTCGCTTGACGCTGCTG` has a fluorescence intensity of 88.3 a.u.
The fluorescence intensity of `AGCCGACGCCGTAGTCGCGTGCCGATGCCCTTAGCGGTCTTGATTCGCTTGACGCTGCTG` is reported as 82.4 a.u.
`GTTTCTCTACGATTACACGGGTGAAGCCATTCTCTGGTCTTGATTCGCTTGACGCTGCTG` gave a fluorescence intensity of 59.9 a.u.
The fluorescence intensity of `CCGTTTCCTTTCCATCACGTGCGGAGGTAGCACCCGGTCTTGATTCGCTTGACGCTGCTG` is reported as 3230 a.u.
The fluorescence intensity of `CATACCCAACCTTGTCACCAGACTTAAGATATTTGTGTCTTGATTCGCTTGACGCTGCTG` is reported as 101 a.u.
For `CTAGTATTGAATGTTTTCGTGATGGTTTATTGAGACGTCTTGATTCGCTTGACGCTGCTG`, the fluorescence intensity was 96.5 a.u.
`CTTCTGTAAATTTGGAGAGTGGGTGGACGCGCCCCGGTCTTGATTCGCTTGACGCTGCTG` has a fluorescence intensity of 98.8 a.u.
With `CTTCTGTAAATTTGAAAGGTGGGTGGACGCGCCCCGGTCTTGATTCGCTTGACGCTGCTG` the fluorescence intensity was 86.3 a.u.
`TGCGCAACAACTTGTCACTAGACTTTATGTCTAGAAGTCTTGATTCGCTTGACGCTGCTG` has a fluorescence intensity of 74.9 a.u.
`CTTCTGTAAATTTGTCACCATACTTGACGCGCCCCGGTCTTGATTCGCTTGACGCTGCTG` has a fluorescence intensity of 103 a.u.
`CTTCTGTAAATTTGTCACGTGACTTGACGCGCCCCGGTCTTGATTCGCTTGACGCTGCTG` gave a fluorescence intensity of 23000 a.u.
With `TGAGCGCCATTAAAGCGCGTGCTGTCGTACTGGGTGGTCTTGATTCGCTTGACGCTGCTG` the fluorescence intensity was 87.3 a.u.

Block 3 — method: universal PBM; form: double-stranded DNA, one strand shown; matrix: in vitro; concentration: 600 nM; direction: higher = stronger binding
Target: Sal-like protein 4, full length isoform A (SALL4, Homo sapiens, UniProt Q9UJQ4, residues 1-1053)
UniProt Q9UJQ4, sequence (whole entry, looked up): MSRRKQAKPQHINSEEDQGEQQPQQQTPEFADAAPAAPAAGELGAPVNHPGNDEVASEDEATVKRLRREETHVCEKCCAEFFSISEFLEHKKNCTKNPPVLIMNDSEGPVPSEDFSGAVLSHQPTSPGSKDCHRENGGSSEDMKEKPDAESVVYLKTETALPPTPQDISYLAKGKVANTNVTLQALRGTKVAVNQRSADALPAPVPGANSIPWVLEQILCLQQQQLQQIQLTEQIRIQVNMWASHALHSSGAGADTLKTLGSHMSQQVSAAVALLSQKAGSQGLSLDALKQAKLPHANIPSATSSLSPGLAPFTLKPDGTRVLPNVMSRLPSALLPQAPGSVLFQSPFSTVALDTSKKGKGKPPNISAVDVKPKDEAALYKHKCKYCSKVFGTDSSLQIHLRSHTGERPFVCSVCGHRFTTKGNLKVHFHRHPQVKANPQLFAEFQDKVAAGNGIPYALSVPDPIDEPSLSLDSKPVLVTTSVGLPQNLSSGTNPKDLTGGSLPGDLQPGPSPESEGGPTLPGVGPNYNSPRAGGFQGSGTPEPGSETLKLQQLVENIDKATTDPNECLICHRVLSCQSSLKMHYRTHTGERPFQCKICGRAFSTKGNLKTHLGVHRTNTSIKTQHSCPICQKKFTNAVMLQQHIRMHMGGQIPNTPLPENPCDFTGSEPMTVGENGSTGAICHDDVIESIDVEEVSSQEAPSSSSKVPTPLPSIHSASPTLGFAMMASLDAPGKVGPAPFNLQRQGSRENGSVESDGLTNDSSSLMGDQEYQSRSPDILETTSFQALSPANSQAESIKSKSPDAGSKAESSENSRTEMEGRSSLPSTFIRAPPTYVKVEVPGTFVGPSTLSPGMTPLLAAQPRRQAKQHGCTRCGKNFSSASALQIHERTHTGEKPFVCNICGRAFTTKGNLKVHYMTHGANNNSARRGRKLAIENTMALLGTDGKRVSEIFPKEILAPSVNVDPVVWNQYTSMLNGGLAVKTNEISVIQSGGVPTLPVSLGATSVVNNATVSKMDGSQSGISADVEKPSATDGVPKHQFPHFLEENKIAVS
Setting: 8-mer, flanks averaged, mean of replicates
For `AGTGTACG`, the E-score was -0.0642.
`AGTAGACG` has an E-score of 0.0112.
For `CCCAGCTA`, the E-score was -0.191.
`GCAATAGC` has an E-score of -0.078.
For `AACCCAGC`, the E-score was -0.218.
For `AGCGTGTG`, the E-score was -0.0182.
`CGAAGTTA` has an E-score of 0.0658.
With `ACCTCAAA` the E-score was 0.127.
`ATCATCAG` has an E-score of 0.104.
`AAACCGCA` has an E-score of -0.243.
For `ACTTTGAG`, the E-score was 0.00272.
With `CAGCCCGC` the E-score was -0.37.
`CGATATCG` has an E-score of 0.112.
`CAATGTAC` has an E-score of 0.0569.
The E-score of `ATAGCTGA` is reported as 0.0723.
The E-score of `CACCAGGA` is reported as -0.158.
`AGGAGGGC` has an E-score of -0.303.
The E-score of `CCGCCGGA` is reported as -0.276.
`GTCTTTCA` has an E-score of 0.00613.
With `CGCGTTTA` the E-score was 0.162.
`TAGTTTGA` gave an E-score of 0.176.
`AAGCACGA` gave an E-score of -0.0094.

Block 4 — method: protein binding microarray; form: double-stranded DNA, one strand shown; matrix: in vitro; concentration: not given; relative to: not given; direction: higher = stronger binding
Target: Histone acetyltransferase KAT6A, both winged helices, GST fusion (KAT6A, Homo sapiens, UniProt Q92794, residues 1-181)
Setting: 8-mer, flanks averaged, mean of 2 arrays, mostly near background
Construct (chain): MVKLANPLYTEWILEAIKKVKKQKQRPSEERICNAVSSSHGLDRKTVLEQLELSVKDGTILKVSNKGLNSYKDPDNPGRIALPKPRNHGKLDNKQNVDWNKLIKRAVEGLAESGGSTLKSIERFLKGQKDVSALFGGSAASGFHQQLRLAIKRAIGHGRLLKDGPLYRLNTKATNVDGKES
The E-score of `AGAAGCGA` is reported as -0.00142.
With `AATTCTTG` the E-score was -0.041.
The E-score of `CCTCGATA` is reported as 0.129.
The E-score of `AAGTCAAT` is reported as -0.0942.
With `GATGTGAC` the E-score was 0.0317.
The E-score of `CAAAGGAA` is reported as -0.0715.
For `ATTTACGC`, the E-score was 0.134.
`GTACGTAC` gave an E-score of 0.0206.
For `ACGGCGGC`, the E-score was 0.332.
`CATATGTC` gave an E-score of 0.11.
`AGTGCAAT` gave an E-score of -0.137.
The E-score of `CGTCACGA` is reported as 0.104.
The E-score of `AGTGATCA` is reported as -0.07.
The E-score of `CCCCAAGC` is reported as -0.0759.
The E-score of `CCAAGTAA` is reported as -0.0344.
The E-score of `CAAAAGAC` is reported as 0.00485.
With `AACAGCGC` the E-score was 0.308.
`GATTACGA` has an E-score of -0.0925.
For `ACTAGAGA`, the E-score was -0.151.
For `GGTCAATA`, the E-score was -0.162.
For `CTGCATCA`, the E-score was -0.153.
`GAATACAC` has an E-score of -0.0389.

A few entries again (block 3):
For `ACTTTGAG`, the E-score was 0.00272.
With `CAGCCCGC` the E-score was -0.37.
`CGATATCG` has an E-score of 0.112.
`CAATGTAC` has an E-score of 0.0569.
The E-score of `ATAGCTGA` is reported as 0.0723.
The E-score of `CACCAGGA` is reported as -0.158.
`AGGAGGGC` has an E-score of -0.303.
The E-score of `CCGCCGGA` is reported as -0.276.
`GTCTTTCA` has an E-score of 0.00613.
With `CGCGTTTA` the E-score was 0.162.
`TAGTTTGA` gave an E-score of 0.176.
`AAGCACGA` gave an E-score of -0.0094.
